# Results pooled from the literature.
# Every numbered part comes from another study and shows a few of its results, in no order.
# Chain of UniProt P30291 (whole entry, looked up): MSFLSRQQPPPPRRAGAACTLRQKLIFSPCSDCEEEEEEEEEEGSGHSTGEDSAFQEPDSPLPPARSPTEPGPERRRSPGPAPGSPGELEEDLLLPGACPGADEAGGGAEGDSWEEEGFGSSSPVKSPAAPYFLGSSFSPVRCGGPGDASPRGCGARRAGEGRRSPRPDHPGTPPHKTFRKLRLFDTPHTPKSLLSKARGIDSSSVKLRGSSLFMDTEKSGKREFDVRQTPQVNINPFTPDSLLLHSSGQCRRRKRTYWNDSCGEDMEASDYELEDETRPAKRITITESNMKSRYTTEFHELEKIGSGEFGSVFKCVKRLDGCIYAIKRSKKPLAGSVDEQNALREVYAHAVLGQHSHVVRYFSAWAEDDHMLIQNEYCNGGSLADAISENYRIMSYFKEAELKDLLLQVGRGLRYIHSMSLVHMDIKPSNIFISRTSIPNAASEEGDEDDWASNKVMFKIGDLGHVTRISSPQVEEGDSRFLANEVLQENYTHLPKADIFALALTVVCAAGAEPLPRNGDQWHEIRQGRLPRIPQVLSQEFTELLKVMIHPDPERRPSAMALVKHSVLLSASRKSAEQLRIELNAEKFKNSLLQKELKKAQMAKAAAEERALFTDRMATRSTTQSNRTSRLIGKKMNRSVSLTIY
# Chain of UniProt P42336 (whole entry, unmodified, looked up): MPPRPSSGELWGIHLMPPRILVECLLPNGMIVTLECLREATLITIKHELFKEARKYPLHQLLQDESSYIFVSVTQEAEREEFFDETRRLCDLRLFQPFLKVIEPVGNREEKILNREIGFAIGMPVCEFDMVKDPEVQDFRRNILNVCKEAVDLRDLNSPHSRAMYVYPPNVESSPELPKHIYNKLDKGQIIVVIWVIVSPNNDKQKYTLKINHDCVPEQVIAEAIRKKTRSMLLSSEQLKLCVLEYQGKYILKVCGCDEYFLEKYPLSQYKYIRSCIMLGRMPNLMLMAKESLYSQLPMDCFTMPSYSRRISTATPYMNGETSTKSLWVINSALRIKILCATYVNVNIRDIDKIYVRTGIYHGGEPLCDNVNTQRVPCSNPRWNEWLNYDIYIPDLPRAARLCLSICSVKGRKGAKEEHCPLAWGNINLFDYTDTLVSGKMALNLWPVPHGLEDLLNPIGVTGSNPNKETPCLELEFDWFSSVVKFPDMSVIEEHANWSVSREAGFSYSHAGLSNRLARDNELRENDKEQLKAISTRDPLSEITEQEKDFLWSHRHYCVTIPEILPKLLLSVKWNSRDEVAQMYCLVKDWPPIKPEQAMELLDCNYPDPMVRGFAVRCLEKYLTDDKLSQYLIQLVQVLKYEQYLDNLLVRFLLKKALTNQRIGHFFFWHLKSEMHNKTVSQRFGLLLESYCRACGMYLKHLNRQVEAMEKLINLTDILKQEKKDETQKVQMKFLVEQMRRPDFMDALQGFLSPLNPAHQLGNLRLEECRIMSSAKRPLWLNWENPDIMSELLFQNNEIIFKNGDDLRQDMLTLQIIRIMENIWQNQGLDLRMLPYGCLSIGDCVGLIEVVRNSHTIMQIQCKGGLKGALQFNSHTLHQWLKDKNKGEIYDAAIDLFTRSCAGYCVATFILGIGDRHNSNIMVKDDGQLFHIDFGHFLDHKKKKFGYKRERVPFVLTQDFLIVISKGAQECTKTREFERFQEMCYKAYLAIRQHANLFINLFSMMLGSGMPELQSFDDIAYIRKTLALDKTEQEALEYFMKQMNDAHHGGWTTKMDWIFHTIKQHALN
# Chain of UniProt Q15418 (whole entry, looked up): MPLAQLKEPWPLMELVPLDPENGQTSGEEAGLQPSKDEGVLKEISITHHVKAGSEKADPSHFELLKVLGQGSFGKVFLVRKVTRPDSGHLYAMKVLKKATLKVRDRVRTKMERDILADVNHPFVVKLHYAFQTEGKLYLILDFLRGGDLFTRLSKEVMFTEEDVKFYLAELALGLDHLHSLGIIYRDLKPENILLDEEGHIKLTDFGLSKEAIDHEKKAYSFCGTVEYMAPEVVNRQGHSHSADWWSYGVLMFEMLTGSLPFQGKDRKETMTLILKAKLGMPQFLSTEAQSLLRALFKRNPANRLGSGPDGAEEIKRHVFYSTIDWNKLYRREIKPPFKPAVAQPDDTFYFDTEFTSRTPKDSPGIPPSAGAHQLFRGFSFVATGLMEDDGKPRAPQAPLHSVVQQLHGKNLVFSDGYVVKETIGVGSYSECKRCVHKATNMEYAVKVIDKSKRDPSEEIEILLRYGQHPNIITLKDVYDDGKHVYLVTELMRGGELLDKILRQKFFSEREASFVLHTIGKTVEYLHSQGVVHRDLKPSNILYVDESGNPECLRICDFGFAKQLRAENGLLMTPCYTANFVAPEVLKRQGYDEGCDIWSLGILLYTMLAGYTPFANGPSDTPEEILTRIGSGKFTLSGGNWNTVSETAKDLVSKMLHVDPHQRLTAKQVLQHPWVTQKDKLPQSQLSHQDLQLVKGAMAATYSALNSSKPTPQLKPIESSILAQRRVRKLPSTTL
# Chain of UniProt Q96PY6 (whole entry, looked up): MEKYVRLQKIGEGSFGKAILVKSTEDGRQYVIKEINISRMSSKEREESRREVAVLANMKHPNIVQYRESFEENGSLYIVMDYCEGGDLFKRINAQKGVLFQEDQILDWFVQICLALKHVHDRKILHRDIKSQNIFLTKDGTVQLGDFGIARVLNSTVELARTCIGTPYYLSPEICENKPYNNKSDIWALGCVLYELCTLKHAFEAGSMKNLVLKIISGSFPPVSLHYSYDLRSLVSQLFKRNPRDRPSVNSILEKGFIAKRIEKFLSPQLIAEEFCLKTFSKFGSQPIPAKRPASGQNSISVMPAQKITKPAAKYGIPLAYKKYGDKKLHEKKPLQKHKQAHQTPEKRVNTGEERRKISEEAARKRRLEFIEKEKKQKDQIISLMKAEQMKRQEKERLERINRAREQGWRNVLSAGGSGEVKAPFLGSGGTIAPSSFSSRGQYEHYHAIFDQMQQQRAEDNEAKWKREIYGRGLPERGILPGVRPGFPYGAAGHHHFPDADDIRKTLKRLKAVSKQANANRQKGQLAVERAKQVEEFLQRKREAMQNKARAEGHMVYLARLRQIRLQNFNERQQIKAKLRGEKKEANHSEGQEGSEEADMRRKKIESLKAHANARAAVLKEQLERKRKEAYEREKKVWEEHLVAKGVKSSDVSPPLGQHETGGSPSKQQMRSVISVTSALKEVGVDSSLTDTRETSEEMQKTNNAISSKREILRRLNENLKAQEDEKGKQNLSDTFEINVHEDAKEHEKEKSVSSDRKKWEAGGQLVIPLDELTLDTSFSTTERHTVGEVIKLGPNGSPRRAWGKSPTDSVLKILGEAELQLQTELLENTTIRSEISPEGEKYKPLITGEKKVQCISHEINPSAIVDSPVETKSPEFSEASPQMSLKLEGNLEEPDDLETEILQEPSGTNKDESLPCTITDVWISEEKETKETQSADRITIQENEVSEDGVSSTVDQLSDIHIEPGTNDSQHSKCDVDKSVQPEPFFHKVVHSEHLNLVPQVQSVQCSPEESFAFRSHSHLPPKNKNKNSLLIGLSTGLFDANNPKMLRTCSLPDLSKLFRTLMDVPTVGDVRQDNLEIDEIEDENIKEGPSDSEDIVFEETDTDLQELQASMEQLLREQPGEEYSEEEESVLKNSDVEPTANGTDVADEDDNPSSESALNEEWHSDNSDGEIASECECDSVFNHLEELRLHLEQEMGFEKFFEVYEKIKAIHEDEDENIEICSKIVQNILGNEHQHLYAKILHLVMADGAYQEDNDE
# Chain of UniProt Q8N5S9 (whole entry, looked up): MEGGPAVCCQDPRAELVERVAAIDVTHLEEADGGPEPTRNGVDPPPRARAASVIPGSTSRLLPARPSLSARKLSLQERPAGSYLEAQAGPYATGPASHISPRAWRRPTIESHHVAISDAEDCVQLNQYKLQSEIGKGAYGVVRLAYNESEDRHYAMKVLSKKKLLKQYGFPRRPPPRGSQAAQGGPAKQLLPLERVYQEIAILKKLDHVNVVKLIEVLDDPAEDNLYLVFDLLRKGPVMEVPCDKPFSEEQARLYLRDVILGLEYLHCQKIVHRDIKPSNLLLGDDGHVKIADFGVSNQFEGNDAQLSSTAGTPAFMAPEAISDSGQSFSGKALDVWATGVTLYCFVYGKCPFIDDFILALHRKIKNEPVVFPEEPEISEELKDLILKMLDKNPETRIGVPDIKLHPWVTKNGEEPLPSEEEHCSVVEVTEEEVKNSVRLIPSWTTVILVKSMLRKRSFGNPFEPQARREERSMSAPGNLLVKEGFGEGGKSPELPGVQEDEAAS
# Chain of UniProt P11802 (whole entry, looked up): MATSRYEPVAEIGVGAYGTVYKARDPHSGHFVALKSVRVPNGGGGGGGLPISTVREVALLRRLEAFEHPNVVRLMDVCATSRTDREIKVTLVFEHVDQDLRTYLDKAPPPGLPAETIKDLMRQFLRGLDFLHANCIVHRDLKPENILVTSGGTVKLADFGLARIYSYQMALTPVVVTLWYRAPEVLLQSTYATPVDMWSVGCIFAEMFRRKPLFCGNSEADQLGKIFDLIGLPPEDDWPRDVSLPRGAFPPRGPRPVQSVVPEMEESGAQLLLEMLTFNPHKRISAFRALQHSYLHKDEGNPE

# Block 1 — effect on: enzyme activity; action: inhibitor; concentration: 10 µM
# Target: Calcium/calmodulin-dependent protein kinase type II subunit alpha (CAMK2A, Homo sapiens, UniProt Q9UQM7)
# Chain of UniProt Q9UQM7 (whole entry, looked up): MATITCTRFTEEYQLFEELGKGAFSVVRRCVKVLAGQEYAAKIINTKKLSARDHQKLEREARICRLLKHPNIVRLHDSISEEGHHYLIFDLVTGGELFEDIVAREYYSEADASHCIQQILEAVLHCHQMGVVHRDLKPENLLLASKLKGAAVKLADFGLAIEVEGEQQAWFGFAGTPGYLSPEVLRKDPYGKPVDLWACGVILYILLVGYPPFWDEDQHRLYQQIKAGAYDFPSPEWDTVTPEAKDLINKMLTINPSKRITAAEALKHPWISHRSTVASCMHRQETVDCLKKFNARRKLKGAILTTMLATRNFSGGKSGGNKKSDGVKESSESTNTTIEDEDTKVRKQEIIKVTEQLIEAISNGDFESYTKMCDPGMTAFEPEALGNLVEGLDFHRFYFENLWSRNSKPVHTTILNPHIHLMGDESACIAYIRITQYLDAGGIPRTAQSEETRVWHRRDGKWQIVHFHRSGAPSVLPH
Structure (SMILES),inhibition [%]
CCc1ccc(O)cc1O,-11
OC[C@H]1NC[C@H](O)[C@@H](O)[C@@H]1O,-9
CN(C)[C@@H]1C(O)=C(C(N)=O)C(=O)[C@@]2(O)C(O)=C3C(=O)c4c(O)cccc4[C@@](C)(O)[C@H]3[C@H](O)[C@@H]12,2
NNC(=O)c1ccncc1,-12
O=Cc1c[nH]c2ccccc12,-16
Nc1ccn([C@@H]2O[C@H](COP(=O)(O)OP(=O)(O)OP(=O)(O)O)[C@@H](O)[C@H]2O)c(=O)n1,0
C=CCSSSCC=C,-17
CS(=O)(=O)c1cccc(C[C@H](NC(=O)c2c(Cl)cc3c(c2Cl)CCN(C(=O)c2ccc4ccoc4c2)C3)C(=O)O)c1,4
COc1ccc(-c2cc(C(F)F)nn2-c2ccc(S(N)(=O)=O)cc2)cc1F,-4
COc1cc2c(=O)c(-c3ccc(O)cc3)coc2cc1O[C@@H]1O[C@H](CO)[C@@H](O)[C@H](O)[C@H]1O,-6

# Block 2 — cell line: mouse MPNST tumor cells; method: high-content immunofluorescence imaging; refers to: nuclear SOX9; concentration: 10 µM; time: 12 h; setting: mean of 2 replicates; baseline: DMSO control; reading: higher = more nuclear SOX9
SMILES,nuclear SOX9 intensity
O=C(COc1ccccc1Cl)Nc1cc(Cl)ccc1C(=O)O,117 % of DMSO
NC(=O)c1ccc(F)c2c1C[C@@H](N(C1CCC1)C1CCC1)CO2,98 % of DMSO
CC#CCOC(=O)c1c(C)nc2sc3c(c2c1N)CCC(O)C3 (centres unmarked),104 % of DMSO
O=C(O)[C@H](Cc1ccc(OC(=O)N2CCCC2)cc1)NC(=O)[C@@H]1CCCN1S(=O)(=O)c1ccccc1,89.1 % of DMSO
O=C(Nc1cc(C(F)(F)F)cc(C(F)(F)F)c1)Nc1c(Br)cc(Br)cc1-c1nn[nH]n1,106 % of DMSO
CCC(=O)NC1Cc2ccccc2C(c2ccccc2)C1 (centres unmarked),108 % of DMSO
COc1ccc(CNC(=O)Nc2ncc([N+](=O)[O-])s2)cc1,105 % of DMSO
Cc1cc(C)c(-n2ccn3nc(-c4cccnc4)cc23)cc1NC(=O)c1cc(C#N)cc(S(F)(F)(F)(F)F)c1,186 % of DMSO

# Block 3 — species: mouse; medium: microsomes or S9; concentration: 2 µM; time: 0.5 h
SMILES,remaining compound [%]
COc1nc(OC)nc(Oc2ccc(NC(=O)c3c[nH]c4ccccc34)cc2)n1,81.5
COC(=O)c1cc2c(c(N(C)C)c1)OC(C)(C)C=C2,0.112
Cc1nccc(-c2ccccc2Cl)c1C(OC(C)(C)C)C(=O)NCCO (centres unmarked),3.99
CCc1noc(CN(CC)C(=O)C2CNCCO2)n1 (centres unmarked),76.4
COC(=O)CCN(Cc1ccncc1)c1ncnc2c(F)cccc12,> 99.9
N#Cc1cc(F)ccc1S(=O)(=O)N1CCCO1,95.7
Cc1nc(CN2CCN(c3cnc4ccccc4n3)CC2)oc1C,83.6
C[C@H](Nc1ccnc2c1NC(=O)CN2)c1cc2cccc(Cl)c2c(=O)n1-c1ccccc1,23.6
Cc1ccc(S(=O)(=O)N2OC(c3ccc(Cl)cc3)(c3ccc(Cl)cc3)C=C2c2ccccc2)cc1,36.3
Cc1cc(C(=O)Nc2ccc3ccccc3c2)no1,45.6

# Block 4 — effect on: cell-free assay; method: competition with immobilised ligand; concentration: 1 µM
# Structure (SMILES): CCS(=O)(=O)c1cc2cc(C[C@](O)(CC(C)(C)c3ccc(F)cc3C(N)=O)C(F)(F)F)[nH]c2cn1
target,remaining binding
"Tyrosine-protein kinase ABL1, phosphorylated (ABL1, Homo sapiens, UniProt P00519, T315I)",85%
"Phosphatidylinositol 4,5-bisphosphate 3-kinase catalytic subunit alpha isoform (PIK3CA, Homo sapiens, UniProt P42336, E542K)",66%
"Proto-oncogene tyrosine-protein kinase ROS (ROS1, Homo sapiens, UniProt P08922)",100%
"Serine/threonine-protein kinase PAK 1 (PAK1, Homo sapiens, UniProt Q13153)",95%
"Cyclin-dependent kinase 4, with cyclin D3 (CDK4, Homo sapiens, UniProt P11802)",97%
"Mitogen-activated protein kinase kinase kinase 5 (MAP3K5, Homo sapiens, UniProt Q99683)",100%
"Activin receptor type-1 (ACVR1, Homo sapiens, UniProt Q04771)",100%
"Serine/threonine-protein kinase 25 (STK25, Homo sapiens, UniProt O00506)",86%
"Serine/threonine-protein kinase Nek1 (NEK1, Homo sapiens, UniProt Q96PY6)",45%
"Tyrosine-protein kinase Blk (BLK, Homo sapiens, UniProt P51451)",100%
"Dual specificity mitogen-activated protein kinase kinase 4 (MAP2K4, Homo sapiens, UniProt P45985)",100%
"Wee1-like protein kinase (WEE1, Homo sapiens, UniProt P30291)",100%
"Epidermal growth factor receptor (EGFR, Homo sapiens, UniProt P00533, del752-759)",100%
"Ribosomal protein S6 kinase alpha-1, N-terminal kinase domain (RPS6KA1, Homo sapiens, UniProt Q15418)",100%
"Fibroblast growth factor receptor 2 (FGFR2, Homo sapiens, UniProt P21802)",100%
"Calcium/calmodulin-dependent protein kinase kinase 1 (CAMKK1, Homo sapiens, UniProt Q8N5S9)",100%

# A few entries again (block 2):
SMILES,nuclear SOX9 intensity
Cc1cc(C)c(-n2ccn3nc(-c4cccnc4)cc23)cc1NC(=O)c1cc(C#N)cc(S(F)(F)(F)(F)F)c1,186 % of DMSO
NC(=O)c1ccc(F)c2c1C[C@@H](N(C1CCC1)C1CCC1)CO2,98 % of DMSO
O=C(COc1ccccc1Cl)Nc1cc(Cl)ccc1C(=O)O,117 % of DMSO
CCC(=O)NC1Cc2ccccc2C(c2ccccc2)C1 (centres unmarked),108 % of DMSO
